Published values pooled from the literature.
Protocols differ between the studies behind these lines.
Organism: Staphylococcus aureus

| SMILES | assay | system | setting | how to read | MIC |
| --- | --- | --- | --- | --- | --- |
| CCCCOC1C(C)C2C(C=CC3C(C)C=CC=CC(C)OC(=O)C(C)C(=O)C(Cl)(Cl)C(=O)C32)CC1(C)O (stereo not shown) | microbial growth, broth dilution | NEWMAN |  |  | 1.6 µg/mL |
| CCc1nc(N)nc(N)c1C#C[C@H](C)c1cc(-c2cc(C)nc(C)c2)ccc1Cl | broth microdilution | ATCC 43300 | 18 h, 37 °C |  | 0.156 µg/mL |
| CNC(CC(C)C)C(=O)NC1C(=O)NC(CC(N)=O)C(=O)NC2C(=O)NC3C(=O)NC(C(=O)NC(C(=O)O)c4cc(O)cc(O)c4-c4cc3ccc4O)C(O)c3ccc(c(Cl)c3)Oc3cc2cc(c3OC2OC(CO)C(O)C(O)C2OC2CC(C)(NC(=O)CCCCCCCCC[N+]3(C)CCOCC3)C(O)C(C)O2)Oc2ccc(cc2Cl)C1O (stereo not shown) | agar dilution | MRSA clinical isolate MRSA3 |  |  | 64 µg/mL |
| C=CCO[C@H]1[C@H](O)[C@@H](N)[C@@H](O[C@H]2[C@H](O[C@@H]3O[C@H](CO)[C@@H](O[C@H]4O[C@@H](CN)[C@@H](O)[C@H](O)[C@H]4N)[C@H]3O)[C@@H](O)[C@H](N)C[C@@H]2N)O[C@@H]1CO | broth microdilution | MRSA isolate AG 042 |  |  | 16 µg/mL |
| CNC(CC(C)C)C(=O)NC1C(=O)NC(CC(N)=O)C(=O)NC2C(=O)NC3C(=O)NC(C(=O)NC(C(=O)O)c4cc(O)cc(O)c4-c4cc3ccc4O)C(O)c3ccc(c(Cl)c3)Oc3cc2cc(c3OC2OC(CO)C(O)C(O)C2OC2CC(C)(NC(=O)CCCCCCCCC[N+](C)(C)C)C(O)C(C)O2)Oc2ccc(cc2Cl)C1O (stereo not shown) | agar dilution | MRSA clinical isolate MRSA4 |  |  | 32 µg/mL |
| Clc1ccc(CSc2nnc(C34CC5CC(CC(C5)C3)C4)n2-c2ccccc2)cc1 | two-fold dilution | IFO 3060 | 24 h, 36 °C |  | 8 µg/mL |
| COC1CCN(Cc2cc(N(C)C)c3c(c2O)C(=O)C2=C(O)[C@]4(O)C(=O)C(C(N)=O)=C(O)[C@@H](N(C)C)[C@@H]4C[C@@H]2C3)CC1 |  | MRSA 5, Tet M ribosome protection |  |  | 1 µg/mL |
| CCn1cc(C(=O)NCCNCCO)c(=O)c2cc(OCc3ccc(C(C)(C)C)cc3)c(Cl)cc21 |  | ATCC 43300 MRSA |  | ≥80% growth inhibition | < 0.25 µg/mL |
| COCO[C@H]1[C@H](O)[C@@H](N)[C@@H](O[C@H]2[C@H](O[C@@H]3O[C@H](CO)[C@@H](O[C@H]4O[C@@H](CN)[C@@H](O)[C@H](O)[C@H]4N)[C@H]3O)[C@@H](O)[C@H](N)C[C@@H]2N)O[C@@H]1CO | broth microdilution | MRSA isolate AG 038 |  |  | 16 to 32 µg/mL |
| COc1cccc(C2Nc3ccccc3C3=[O+][Cu-2]4([Cl])[O]c5c(cccc5OC)C=[N+]4N32)c1O (stereo not shown) | broth microdilution | ATCC 29213 | 24 h, 37 °C |  | 64 µg/mL |
| CN(C)c1cc(CNC(=O)C(C)(C)C)c(O)c2c1C[C@H]1C[C@H]3[C@H](N(C)C)C(O)=C(C(N)=O)C(=O)[C@@]3(O)C(O)=C1C2=O | microbial growth, broth dilution |  |  |  | 2 µg/mL |
| NC[C@@H]1O[C@H](O[C@H]2[C@@H](O)[C@H](O[C@@H]3[C@@H](O)[C@H](N)C[C@H](N)[C@H]3O[C@H]3O[C@H](CO)[C@@H](OCC(O)CO)[C@H](O)[C@H]3N)O[C@@H]2CO)[C@H](N)[C@@H](O)[C@@H]1O (stereo partly shown) | broth microdilution | MRSA isolate AG 039 |  |  | 16 to 32 µg/mL |
| CN(C)c1cc(CNCc2ccncc2)c(O)c2c1C[C@H]1C[C@H]3[C@H](N(C)C)C(O)=C(C(N)=O)C(=O)[C@@]3(O)C(O)=C1C2=O | microbial growth, broth dilution |  |  |  | 2 µg/mL |
| O=C1OCC(SCc2ccccc2)N1/N=C/c1ccc([N+](=O)[O-])o1 (stereo not shown) | microbial growth, broth dilution | ATCC29213 | 18 h |  | 3.12 µg/mL |
| c1ccc(CN2CCOCCOCCN(CCCCCCCCCCCCCCN3CCOCCOCCN(CCCCCCCCCCCCCCN4CCOCCOCCN(Cc5ccccc5)CCOCCOCC4)CCOCCOCC3)CCOCCOCC2)cc1 | microbial growth |  |  |  | 1.5 µM |
| N=C(N)NCCC[C@H](NC(=O)[C@H](Cc1c[nH]c2ccccc12)NC(=O)[C@H](CCC(N)=O)NC(=O)[C@H](Cc1c[nH]c2ccccc12)NC(=O)[C@H](CCCNC(=N)N)NC(=O)[C@@H](N)CCCNC(=N)N)C(=O)NCCCC[C@H](NC(=O)[C@H](CCCNC(=N)N)NC(=O)[C@H](Cc1c[nH]c2ccccc12)NC(=O)[C@H](CCC(N)=O)NC(=O)[C@H](Cc1c[nH]c2ccccc12)NC(=O)[C@H](CCCNC(=N)N)NC(=O)[C@@H](N)CCCNC(=N)N)C(=O)NCCCCCC(=O)N[C@@H](CSSC[C@H](NC(=O)CCCCCNC(=O)[C@H](CCCCNC(=O)[C@H](CCCNC(=N)N)NC(=O)[C@H](Cc1c[nH]c2ccccc12)NC(=O)[C@H](CCC(N)=O)NC(=O)[C@H](Cc1c[nH]c2ccccc12)NC(=O)[C@H](CCCNC(=N)N)NC(=O)[C@@H](N)CCCNC(=N)N)NC(=O)[C@H](CCCNC(=N)N)NC(=O)[C@H](Cc1c[nH]c2ccccc12)NC(=O)[C@H](CCC(N)=O)NC(=O)[C@H](Cc1c[nH]c2ccccc12)NC(=O)[C@H](CCCNC(=N)N)NC(=O)[C@@H](N)CCCNC(=N)N)C(N)=O)C(N)=O | broth microdilution | ATCC 25923 | 24 h, 37 °C |  | 22 µM |

| SMILES | assay | system | setting | how to read | MIC |
| --- | --- | --- | --- | --- | --- |
| Oc1c(Br)cc(Br)c2nc3cc(Br)ccc3nc12 | broth microdilution | MRSA 44 |  |  | 0.1 µM |
| CC(C)=CCc1cc2c(cc1O)OC[C@H]1c3ccc(O)c(CC=C(C)C)c3O[C@@H]21 |  |  |  |  | 2 to 4 µg/mL |
| CN(Cc1cc(N(C)C)c2c(c1O)C(=O)C1=C(O)[C@]3(O)C(=O)C(C(N)=O)=C(O)[C@@H](N(C)C)[C@@H]3C[C@@H]1C2)CC(C)(C)C |  | MRSA 5, Tet M ribosome protection |  |  | 0.5 µg/mL |
| Nn1c(CCCC2CCCCC2)nc2ccccc2c1=O | broth microdilution | RN6390B |  |  | > 100 µM |
| C/C(=N\Nc1nc(-c2ccc(Cl)cc2)cs1)c1ccc2c(c1)sc1nc(=O)c(C#N)cn12 | microbial growth, broth dilution |  |  |  | < 35 µg/mL |
| Cc1cc(/C=C2\Sc3ccccc3N2CCCN2CCCC2)c2ccccc2[n+]1C | microbial growth, broth dilution | ATCCBAA1720 MRSA |  |  | 32 µg/mL |
| CCCCCCCCCCCCCCCC(=O)N(C)[C@H](CO)C(=O)N[C@H](C)C(=O)NCC(=O)N(C)[C@@H]1C(=O)N[C@@H](C)C(=O)N[C@H](C(=O)O)Cc2ccc(O)c(c2)-c2cc1ccc2O[C@@H]1O[C@@H](C)[C@H](O)[C@@H](O)[C@H]1O |  | NCTC 8325 | cation-adjusted Mueller Hinton II |  | inactive |
| CC(C)C[C@H](NC(=O)[C@H](CC(N)=O)NC(=O)[C@H](CCCNC(=N)N)NC(=O)[C@@H](CC(C)C)NC(=O)[C@H](Cc1ccc2ccccc2c1)NC(=O)[C@H](CC(=O)O)NC(=O)[C@H](CCCCN)NC(=O)[C@@H](CC(C)C)NC(=O)[C@H](CCCNC(=N)N)NC(=O)[C@H](CCC(N)=O)NC(=O)[C@@H](NC(=O)[C@@H](CC(C)C)NC(=O)[C@H](CCCNC(=N)N)NC(=O)[C@H](CCCCN)NC(=O)[C@H](Cc1ccc(C(F)(F)F)cc1)NC(=O)CN)C(C)C)C(=O)N[C@H](C(N)=O)C(C)C | broth microdilution | USA300 LAC, MRSA |  |  | 6.2 µM |
| CN(C)c1cc(CN2CCCCC2)c(O)c2c1C[C@H]1C[C@H]3[C@H](N(C)C)C(O)=C(C(N)=O)C(=O)[C@@]3(O)C(O)=C1C2=O |  | RN4250, Tet K efflux |  |  | 0.25 µg/mL |
| NC(=O)C1COC(=O)N1/N=C/c1ccc([N+](=O)[O-])o1 (stereo not shown) | microbial growth, broth dilution | ATCC29213 | 18 h |  | 25 µg/mL |
| CCCCc1ccc(N2C(=O)/C(=N\NC(=N)N)c3cc(F)ccc32)cc1 | microbial growth, broth dilution |  | 18 h |  | 12 µg/mL |
| CCC1(C)CCN(Cc2cc(N(C)C)c3c(c2O)C(=O)C2=C(O)[C@]4(O)C(=O)C(C(N)=O)=C(O)[C@@H](N(C)C)[C@@H]4C[C@@H]2C3)CC1 |  | MRSA 5, Tet M ribosome protection |  |  | 1 µg/mL |
| CCCCCCCCCCCc1nc2ccccc2c(=O)n1N | broth microdilution | RN6390B |  |  | > 100 µM |
| CN(C)Cc1cc(N(C)C)c2c(c1O)C(=O)C1=C(O)[C@]3(O)C(=O)C(C(N)=O)=C(O)[C@@H](N(C)C)[C@@H]3C[C@@H]1C2 | microbial growth, broth dilution |  |  |  | 1 µg/mL |
| CCN(CC)CCCN1/C(=C/c2cc(C)[n+](C)c3ccccc23)Sc2ccccc21 | microbial growth, broth dilution | ATCCBAA41 MRSA |  |  | 2 µg/mL |

Repeated from above:
| SMILES | assay | system | setting | how to read | MIC |
| --- | --- | --- | --- | --- | --- |
| NC[C@@H]1O[C@H](O[C@H]2[C@@H](O)[C@H](O[C@@H]3[C@@H](O)[C@H](N)C[C@H](N)[C@H]3O[C@H]3O[C@H](CO)[C@@H](OCC(O)CO)[C@H](O)[C@H]3N)O[C@@H]2CO)[C@H](N)[C@@H](O)[C@@H]1O (stereo partly shown) | broth microdilution | MRSA isolate AG 039 |  |  | 16 to 32 µg/mL |
| CNC(CC(C)C)C(=O)NC1C(=O)NC(CC(N)=O)C(=O)NC2C(=O)NC3C(=O)NC(C(=O)NC(C(=O)O)c4cc(O)cc(O)c4-c4cc3ccc4O)C(O)c3ccc(c(Cl)c3)Oc3cc2cc(c3OC2OC(CO)C(O)C(O)C2OC2CC(C)(NC(=O)CCCCCCCCC[N+](C)(C)C)C(O)C(C)O2)Oc2ccc(cc2Cl)C1O (stereo not shown) | agar dilution | MRSA clinical isolate MRSA4 |  |  | 32 µg/mL |
